Experimental data gathered from unrelated publications.
Numbered parts are unrelated; each lists some results of a single study. Substitutions count along the parent as printed.
Chain of UniProt P08069 (whole entry, looked up): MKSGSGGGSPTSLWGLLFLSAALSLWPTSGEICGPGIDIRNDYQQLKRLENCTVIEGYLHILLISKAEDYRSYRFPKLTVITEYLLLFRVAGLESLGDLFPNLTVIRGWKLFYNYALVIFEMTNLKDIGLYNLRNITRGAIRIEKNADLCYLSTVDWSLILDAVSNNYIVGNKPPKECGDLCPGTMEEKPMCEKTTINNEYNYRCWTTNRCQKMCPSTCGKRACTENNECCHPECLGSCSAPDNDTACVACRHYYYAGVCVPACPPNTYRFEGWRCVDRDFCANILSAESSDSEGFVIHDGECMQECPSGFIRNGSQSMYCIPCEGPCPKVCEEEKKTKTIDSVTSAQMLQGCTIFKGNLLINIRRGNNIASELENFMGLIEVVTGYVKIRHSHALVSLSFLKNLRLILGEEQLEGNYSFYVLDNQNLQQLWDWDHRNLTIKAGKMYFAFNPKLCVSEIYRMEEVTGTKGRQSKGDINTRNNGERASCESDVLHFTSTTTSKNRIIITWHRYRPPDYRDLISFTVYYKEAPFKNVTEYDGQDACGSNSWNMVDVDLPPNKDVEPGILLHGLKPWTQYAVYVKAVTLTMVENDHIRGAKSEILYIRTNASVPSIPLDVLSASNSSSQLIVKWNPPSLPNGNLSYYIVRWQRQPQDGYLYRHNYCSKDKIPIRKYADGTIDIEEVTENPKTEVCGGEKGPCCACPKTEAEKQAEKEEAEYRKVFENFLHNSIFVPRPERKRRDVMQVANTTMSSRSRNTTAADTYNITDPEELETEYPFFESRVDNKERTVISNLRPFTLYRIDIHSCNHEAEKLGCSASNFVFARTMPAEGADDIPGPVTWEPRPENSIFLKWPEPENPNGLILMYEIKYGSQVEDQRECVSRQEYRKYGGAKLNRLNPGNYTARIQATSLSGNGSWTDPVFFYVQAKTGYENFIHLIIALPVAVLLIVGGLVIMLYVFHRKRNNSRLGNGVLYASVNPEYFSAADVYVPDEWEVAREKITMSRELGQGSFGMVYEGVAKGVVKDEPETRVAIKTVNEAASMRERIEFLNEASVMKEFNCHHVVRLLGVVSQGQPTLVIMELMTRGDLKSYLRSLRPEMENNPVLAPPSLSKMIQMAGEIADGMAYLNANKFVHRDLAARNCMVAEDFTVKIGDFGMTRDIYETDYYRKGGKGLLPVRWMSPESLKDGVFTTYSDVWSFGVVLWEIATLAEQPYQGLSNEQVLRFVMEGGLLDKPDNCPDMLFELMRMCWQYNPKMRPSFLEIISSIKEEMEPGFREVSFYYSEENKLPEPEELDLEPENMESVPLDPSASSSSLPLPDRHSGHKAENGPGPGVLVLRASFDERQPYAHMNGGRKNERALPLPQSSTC

Set 1 — method: RNAcompete; form: RNA; matrix: in vitro; tested at: 20 nM; setting: 7-mer, probes averaged, single round; relative to: mean of 7-mers; reading: higher = stronger binding
Target: PABPC1L2, full length, GST fusion (mouse, UniProt A0ABA7IW68)
Construct (chain): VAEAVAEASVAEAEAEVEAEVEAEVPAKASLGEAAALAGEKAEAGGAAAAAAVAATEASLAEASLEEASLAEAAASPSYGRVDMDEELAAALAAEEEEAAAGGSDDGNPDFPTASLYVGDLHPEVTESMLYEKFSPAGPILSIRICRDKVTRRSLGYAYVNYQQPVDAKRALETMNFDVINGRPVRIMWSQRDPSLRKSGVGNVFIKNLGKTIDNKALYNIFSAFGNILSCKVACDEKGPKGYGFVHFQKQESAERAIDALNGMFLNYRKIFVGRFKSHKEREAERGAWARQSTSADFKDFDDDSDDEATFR
With `AAGUACA` the 7-mer Z-score was 0.492.
`AUCGUAG` has a 7-mer Z-score of -0.206.
`AACCAUG` gave a 7-mer Z-score of -0.00652.
`AGAGAUC` gave a 7-mer Z-score of -0.173.
`AUGACAG` gave a 7-mer Z-score of -0.0808.
`UUACCAA` gave a 7-mer Z-score of 0.0877.
`CGGGAGG` gave a 7-mer Z-score of 0.0841.
`GCCAUCG` has a 7-mer Z-score of -0.253.

Set 2 — method: RNA Bind-n-Seq; form: RNA; matrix: in vitro; tested at: 365 nM; relative to: no-protein control; reading: higher = stronger binding
Target: RNA binding protein fox-1 homolog 2, RRM domain, GST-SBP tag (RBFOX2, Homo sapiens, UniProt O43251-10, residues 100-194)
Setting: natural RNA segment, single round, ends assumed
Shared flanks, not repeated: GGGAGUUCUACAGUCCGACGAUC … UGGAAUUCUCGGGUGCCAA
Residues (chain): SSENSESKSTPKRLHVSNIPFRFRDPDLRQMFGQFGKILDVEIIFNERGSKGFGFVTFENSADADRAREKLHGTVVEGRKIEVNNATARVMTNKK
Under “RBNS enrichment (R)”, `UGUCCACAGCUUGGGCCAGGCUUCCCCUGUCCUCCCACCGGUCGGCUGCUUGGCAAGGCUGUUCAGGACGUGCACUUCCCCAAGUCGGCACUGAGUGGCCCAGCACCGCC` is recorded as 0.44.
For `CAAGUGUAAGGAACUGCGUUCCGCCCCUCAGGCCCCCAUGGGGGCAGGGAUCGGCUUGGAAAUCAACGUGGUUGUCCCCGCCAGGCCGGGGAAGGUUGGAGCAGCCCCCA`, “RBNS enrichment (R)” read 0.277.
`CCUCGCCAUGUGCAUUGCCACCUCUGUUGUCCAGACGGGCACAUGCAGCACGCUGUGGUGACAGCCCGUCGGCACGGGAUUUGUACCGCUGUGCCCGUGUCAGCUCCUGG` — result for “RBNS enrichment (R)”: 0.548.
Under “RBNS enrichment (R)”, `AUCUACGUGGCUUAUAACAUGUACCAGCCUUGUGGGGACUGCAGUGGGCCAUUCUGAAGAAUCACAAAGACAGAAGACCUCUGGCUAAGAGCAGGCUUCAAACGAUGUGA` is recorded as 0.561.
`AGCCGGAGGAGGCUGAAGACAUCAAGAAUAAACGAGGGCAGGAGUGGCGGAGCAUUGCCUUUCUAAGAACUGUGACUGUGGCCCAUCGAGACCUAGCCUGGUUUUCCCUU`: “RBNS enrichment (R)” 0.883.
`UGACAGAAGCUGGGCAUCAGUGAUCUGUUGUGUUGGAUUAAUAGGUCCUUCCCCAAAUGGGACCUGAGGAAAUAGCAGGUGUCCAGCUGAUGUGUUGGGCCUUUUCUAGG` — result for “RBNS enrichment (R)”: 0.218.
Under “RBNS enrichment (R)”, `UCCUUGAAGAGGUCCUUCACAUCCCUUGUAAGUUGGAUUCCUAGGUAUUUUAUUCUCUUUGAAGCAAUUGUGAAUGGGAGUUCACUCAUGAUUUGGCUCUCUGUUUGUCU` is recorded as 0.689.
For `GAGAAAAUUAAUGAAUGAGAUGACUAACGGUAGAAAAGUUAUUGCCUAGGAGUGUGAGACUGAUGUUGCUGGACAGAAAGUGAUCCUUAGCCCAGUGUGUCAGCGUCCAU`, “RBNS enrichment (R)” read 3.92.

Set 3 — method: DHFR PCA, dose-response; matrix: yeast; setting: Hill fit, not affinity; together with: (+)-ABA, dose series; reading: lower = more sensitive
Target: ABI1, truncated, D143A, DHFR fusion (Arabidopsis thaliana, UniProt P49597)
Parent: PYL1, truncated, DHFR fusion (Arabidopsis thaliana, UniProt Q8VZS8); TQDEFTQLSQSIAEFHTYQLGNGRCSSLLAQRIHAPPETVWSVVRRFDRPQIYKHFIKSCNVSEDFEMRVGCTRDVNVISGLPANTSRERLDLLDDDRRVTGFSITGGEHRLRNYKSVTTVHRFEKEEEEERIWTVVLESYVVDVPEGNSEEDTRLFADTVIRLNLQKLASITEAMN
The ABA EC50 of `K126S` is reported as 2.08 µM.
With `I172V` the ABA EC50 was 2.16 µM.
`S104N` gave an ABA EC50 of 1580 µM.
For `L138F`, the ABA EC50 was 5.59 µM.
The ABA EC50 of `D153V` is reported as 1970 µM.
The ABA EC50 of `L20V` is reported as 4.43 µM.
With `S87L` the ABA EC50 was 0.686 µM.
The ABA EC50 of `T39V` is reported as 3.34 µM.

Mixed results
O=C(NS(=O)(=O)c1ccc(NCC2CCOCC2)c([N+](=O)[O-])c1)c1ccc(N2CCN(Cc3ccc(C(F)(F)F)cc3-c3ccc(Cl)cc3)CC2)cc1Oc1cnc2[nH]ccc2c1 has a remaining binding of 100% (Insulin-like growth factor 1 receptor (IGF1R, Homo sapiens, UniProt P08069); cell-free assay, competition with immobilised ligand; 1 µM).

Some of these lines once more (set 3):
With `S87L` the ABA EC50 was 0.686 µM.
For `L138F`, the ABA EC50 was 5.59 µM.
The ABA EC50 of `T39V` is reported as 3.34 µM.
